Published values pooled from the literature.
A part holds a random share of what one study measured.

Series 1
Target: Protein C-ets-1 (ETS1, Homo sapiens, UniProt P14921, residues 1-441, K379A, full length assumed)
Method: protein-binding microarray
Form: double-stranded DNA, one strand shown
Matrix: in vitro
Tested at: not given
Notes: k-mer, scored over probes, only values ≥0.25
Reading: higher = stronger binding
Residues (chain): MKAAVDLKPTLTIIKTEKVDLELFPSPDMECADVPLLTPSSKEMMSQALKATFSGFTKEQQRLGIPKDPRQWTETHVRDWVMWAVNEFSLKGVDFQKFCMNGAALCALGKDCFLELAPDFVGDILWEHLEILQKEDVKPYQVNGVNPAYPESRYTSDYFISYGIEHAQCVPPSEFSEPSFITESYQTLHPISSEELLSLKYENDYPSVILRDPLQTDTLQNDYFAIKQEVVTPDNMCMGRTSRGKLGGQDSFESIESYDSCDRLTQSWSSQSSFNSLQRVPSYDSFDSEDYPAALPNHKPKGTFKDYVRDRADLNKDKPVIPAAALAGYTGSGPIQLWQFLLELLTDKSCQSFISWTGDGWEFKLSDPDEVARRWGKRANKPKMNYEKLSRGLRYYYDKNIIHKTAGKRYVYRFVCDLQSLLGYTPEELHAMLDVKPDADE
Sequence	E-score
GGCCGGTA	0.328
CATATACA	0.294
TATACAGA	0.285
ACTCCGGG	0.339
CCGGTCGA	0.381
CCGGTGAC	0.381
TGGTAAAA	0.273
CCAACACA	0.258
ACATTGTC	0.268
ATCCGCCC	0.301
CCCGGTTC	0.352
CCGGCATC	0.307
AATTACCG	0.326
CCACACAC	0.261
CGGGAACA	0.268
TATACACA	0.271

Series 2
Target: Prothrombin, mature alpha-thrombin (F2, Homo sapiens, UniProt P00734)
Method: aptamer microarray, sandwich
Form: DNA with 2'F-ANA
Matrix: in vitro
Tested at: 200 nM
Notes: whole 15-mer aptamer, many near background
Together with: Cy3 exosite-II aptamer, 400 nM
Reading: higher = stronger binding
Sequence: GGTTGGTGTGGTTGG
Modification	mean fluorescence intensity
2'F-ANA at 3 4 5 9 10 11 15	56.6 a.u.
2'F-ANA at 4 5 6 10 11 12 13 14 15	47.2 a.u.
2'F-ANA at 2 3 4 5 6 7 10 11 12 13 14	61.8 a.u.
2'F-ANA at 1 4 7 8 9 10 13 14 15	70.8 a.u.
2'F-ANA at 1 2 3 4 5 6 8 10 12 13 15	50.4 a.u.
2'F-ANA at 7 8 9	627 a.u.
2'F-ANA at 2 3 6 10 11 12 15	329 a.u.
2'F-ANA at 1 3 8 11 13 14 15	88.8 a.u.
2'F-ANA at 1 2 3 4 5 7 9 12 13 14	48.4 a.u.
2'F-ANA at 2 3 4 5 6 7 12 13 14 15	49.5 a.u.
2'F-ANA at 3 6 7 8 10 11	548 a.u.
2'F-ANA at 1 2 5 9 10 13	202 a.u.
2'F-ANA at 2 5 7 8 11 12 13 15	102 a.u.
2'F-ANA at 7 8 9 10 13 14 15	122 a.u.
2'F-ANA at 1 5 7 11 13 15	48.3 a.u.
2'F-ANA at 2 3 5 6 10 11 12 13	57.4 a.u.
2'F-ANA at 6 8 9 10 14 15	101 a.u.
2'F-ANA at 1 3 4 6 8 9 10 11 12 13 15	90.8 a.u.
2'F-ANA at 2 3 6 12 15	1010 a.u.
2'F-ANA at 2 3 4 6 7 10 11 12 13	214 a.u.
2'F-ANA at 3 4 5 6 7 9 10 12 13 14	107 a.u.
2'F-ANA at 1 3 4 5 6 7 8 9 10 11 12 14 15	48.3 a.u.
2'F-ANA at 1 2 5 6 7 10 11 12 14	49.4 a.u.
2'F-ANA at 1 2 5 6 9 10 13 15	47.4 a.u.
2'F-ANA at 1 4 5 7 9 11	51.3 a.u.

Series 3
Target: Histone acetyltransferase KAT6A, both winged helices, GST fusion (KAT6A, Homo sapiens, UniProt Q92794, residues 1-181)
Method: protein binding microarray
Form: double-stranded DNA, one strand shown
Matrix: in vitro
Tested at: not given
Notes: 8-mer, flanks averaged, mean of 2 arrays, mostly near background
Relative to: not given
Reading: higher = stronger binding
Target sequence (chain): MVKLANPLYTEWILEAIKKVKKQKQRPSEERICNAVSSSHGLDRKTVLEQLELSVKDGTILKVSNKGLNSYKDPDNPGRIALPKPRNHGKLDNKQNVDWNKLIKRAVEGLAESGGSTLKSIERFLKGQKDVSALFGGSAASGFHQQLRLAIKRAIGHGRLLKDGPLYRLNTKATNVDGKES
Sequence	E-score
CGTGCCGC	0.269
CGTCGTCA	0.0423
ATCATATA	-0.0347
CTGTCCGC	0.157
GACCGCGA	0.266
TATTCAAA	0.151
GATAGACC	0.107
CCTCGGTC	-0.121
GTACATAA	-0.00061
CATAATGG	-0.0136
TCATGGAA	-0.0579
TCGGTACA	0.0958
ATGCCGTA	0.287
AACCATTG	-0.0443
CAGATAGA	-0.244
ATCACCAT	-0.0404
CCGGACAA	0.227
CCGAAATA	0.0395
AAACGCTA	0.0822
GTAGGAGA	-0.0893

Series 4
Target: Sal-like protein 4, full length isoform A (SALL4, Homo sapiens, UniProt Q9UJQ4, residues 1-1053)
Sequence of UniProt Q9UJQ4 (whole entry, looked up): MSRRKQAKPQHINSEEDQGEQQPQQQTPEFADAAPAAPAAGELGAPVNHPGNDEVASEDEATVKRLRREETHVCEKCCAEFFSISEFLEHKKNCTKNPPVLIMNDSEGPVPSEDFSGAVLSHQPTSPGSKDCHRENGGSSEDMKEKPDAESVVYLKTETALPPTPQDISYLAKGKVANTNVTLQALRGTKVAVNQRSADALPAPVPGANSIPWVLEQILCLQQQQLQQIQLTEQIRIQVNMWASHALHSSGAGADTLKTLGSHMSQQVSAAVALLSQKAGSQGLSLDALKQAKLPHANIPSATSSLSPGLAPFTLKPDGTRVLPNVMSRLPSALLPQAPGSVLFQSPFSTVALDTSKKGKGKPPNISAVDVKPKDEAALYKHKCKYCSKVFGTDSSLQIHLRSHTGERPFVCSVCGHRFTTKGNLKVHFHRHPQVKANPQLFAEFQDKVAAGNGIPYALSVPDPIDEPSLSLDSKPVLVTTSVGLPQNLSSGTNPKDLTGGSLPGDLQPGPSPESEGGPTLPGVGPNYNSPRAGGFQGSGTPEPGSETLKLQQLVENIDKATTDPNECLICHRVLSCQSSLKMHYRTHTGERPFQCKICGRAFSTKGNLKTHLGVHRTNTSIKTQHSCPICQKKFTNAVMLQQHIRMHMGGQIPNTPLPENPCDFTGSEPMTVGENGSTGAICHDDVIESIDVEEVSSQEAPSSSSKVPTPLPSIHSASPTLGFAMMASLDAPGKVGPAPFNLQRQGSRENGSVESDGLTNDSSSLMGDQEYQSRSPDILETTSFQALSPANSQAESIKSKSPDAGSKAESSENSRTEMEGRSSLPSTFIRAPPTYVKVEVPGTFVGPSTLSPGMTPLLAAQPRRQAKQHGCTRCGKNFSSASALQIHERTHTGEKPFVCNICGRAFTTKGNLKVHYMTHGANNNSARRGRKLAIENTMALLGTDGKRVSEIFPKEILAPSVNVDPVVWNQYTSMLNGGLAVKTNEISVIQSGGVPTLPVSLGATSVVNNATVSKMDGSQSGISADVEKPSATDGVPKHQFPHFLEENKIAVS
Method: universal PBM
Form: double-stranded DNA, one strand shown
Matrix: in vitro
Tested at: 600 nM
Notes: 8-mer, flanks averaged, mean of replicates
Reading: higher = stronger binding
Sequence	E-score
ATCGATAA	0.225
GATCAATC	-0.0165
TCATCTCA	0.134
TGGCAAAA	0.261
CGGTAGAG	-0.294
AAGGCGCT	-0.0734
ATAGAGCA	0.191
ATGACTAA	0.225
CAAACAAG	-0.0788
GACTTGGC	-0.153
ACATCGGG	-0.337
CCCTTATA	0.202
CCGACCAC	-0.16
CACGTGGC	-0.303
AGCAACAG	0.0232
TCCCGAAA	0.0977
GTCTACGA	-0.103
GGCGAAGA	-0.198
TACCGAAA	0.122
CCTACTCA	-0.0687
CTAACGCC	-0.104
ATTGAATA	0.402
AAGAACAA	0.241
CATCTAGG	-0.111
TTAAAAAA	0.368

Series 5
Target: RNA binding protein fox-1 homolog 2, RRM domain, GST-SBP tag (RBFOX2, Homo sapiens, UniProt O43251-10, residues 100-194)
Method: RNA Bind-n-Seq
Form: RNA
Matrix: in vitro
Tested at: 365 nM
Notes: natural RNA segment, single round, ends assumed
Relative to: no-protein control
Reading: higher = stronger binding
Construct (chain): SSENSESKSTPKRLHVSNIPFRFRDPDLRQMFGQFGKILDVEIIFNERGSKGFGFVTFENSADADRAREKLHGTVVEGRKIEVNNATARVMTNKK
Sequence	RBNS enrichment (R)
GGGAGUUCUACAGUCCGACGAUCAAUCCAAGAGCUAUAAUUUUUAAAAAAAAAAAUCUUUUAUUUUAAUACAUUGUAGGAAAUCUUCAUAAUUGGAGAAAGUUCUGCAGCAUGGCUUUUUACGUCUGUAAAUAUGGAAUUCUCGGGUGCCAA	0.569
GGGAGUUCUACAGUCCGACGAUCCCAAGCAAGCUUUUUCCUUCAUAUGAGCUGUCAUACUGUAUUUUGACCUCUUUCUGCACGAAAAAAGAAAGAAAAAUGACAGCUGGAAAAAGUCCUUUGUAUUGGCACAUUGGAAUUCUCGGGUGCCAA	19
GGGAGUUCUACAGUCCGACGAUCAGUGCCUUAUUAUGUUUCUCCCUUGAAUGCUUCAGUGUUUUGAGUCAUACUCUAGAAUGGACUGACACUAGGACACACUCAGGACUUUUUUAGUUGUAUUUUAUACCUGUUGGAAUUCUCGGGUGCCAA	0.788
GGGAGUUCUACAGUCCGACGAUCGUGCAAAUAGAAUUAGCAGUAAGAAGCUACUCUAGCUAAUUUGCCAUUUUACUUAAAUGGAAAAUGUUUUUCAAAUAAAUACUUAUGUUGUUCAUGUUCCAAGUUAUUCAUGGAAUUCUCGGGUGCCAA	0.549
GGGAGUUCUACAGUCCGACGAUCUUGAUUUUACUUCAAGACAUAGCAAGAGAAACAAAAUUUUGUUUUCAAGACAUUUCCACUGCAGUUUCAAGCUGUAGUGGGCAUAUGCUUCAUUUACUUCCAAAGAGGCAUGGAAUUCUCGGGUGCCAA	0.236
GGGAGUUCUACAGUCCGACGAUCCCGAGUCACACCCGGUGGCUCUGGUAUGAAUUCACCCGAAGCGCUUCUGCACCAACUCACCUGGCCGCUAAGUUGCUGAUGGGUAGUACCUGUACUAAACCACCUCAGAAUGGAAUUCUCGGGUGCCAA	0.233
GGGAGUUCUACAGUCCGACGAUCGCUGUCUUUUGCUUCUGUUUGAUUUGGUCUGCGUAUCUUUUAAUGUGUCUGUUUUGUUUUGUUUGUUUCGUUUUUAUUUUUCAGUUAAAGCACGCACAGACAUACAUGUCUGGAAUUCUCGGGUGCCAA	3.65
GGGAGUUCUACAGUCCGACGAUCUGCGUUGUGACAAACAUGCAAUGUGCUGUAAAAAUUCAAUACAGUUUAAAUAAAAUCUCUAUAUUAGGCUGCUUUGUUGGGUCGUUUUAUUUUCAUUUCUAAAAAAACUUUGGAAUUCUCGGGUGCCAA	0.89
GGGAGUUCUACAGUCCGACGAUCCUGAGCAGGCGCUUCCAUUGCCGUCUCACUAUGAGAGCAUACCUGGAUGUCCAGGCAAGACUGGGCGAAGUUUCUGAGUGGCCCUUUGUUUAGGUGACGUCCUCAGACCUUGGAAUUCUCGGGUGCCAA	0.249
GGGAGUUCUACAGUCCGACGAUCACAGAGGAGAUUAGGAUUUCAAAGAACAAAGAACUGCCCAGUUUCUAUUGGGCUCUUAGACACAGACCUGAGCCAUGAACCCAAGCCACGUAUCUACACCAUAGCUGCCUUGGAAUUCUCGGGUGCCAA	0.404
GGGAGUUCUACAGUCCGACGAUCAAUGUAACUAUUUAGCCCUGGAUUAUACAUACUGUCCAAUUUUCAUUAAAUUUUUGUCUUAUAACUAUUGAAGUUUGGUUAAUAUCUGCUUUACAAAAUUGGUGGGGGUAUGGAAUUCUCGGGUGCCAA	0.763
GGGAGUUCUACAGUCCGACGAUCAGGAGUUCAAGGCCAGCCUUAGCUAUAUAGUGAGUUUGAAGCCAGCCUGGGCUACAUGUAACCUUCCCAAAAAAAUCCAAAACAACAACAAAAAUAUUUAAGUGUGCCUAUGGAAUUCUCGGGUGCCAA	0.606

Some of these lines once more (series 2):
Modification	mean fluorescence intensity
2'F-ANA at 1 2 3 4 5 6 8 10 12 13 15	50.4 a.u.
2'F-ANA at 3 4 5 6 7 9 10 12 13 14	107 a.u.
2'F-ANA at 7 8 9	627 a.u.
2'F-ANA at 4 5 6 10 11 12 13 14 15	47.2 a.u.
2'F-ANA at 1 2 5 9 10 13	202 a.u.
2'F-ANA at 1 2 3 4 5 7 9 12 13 14	48.4 a.u.
2'F-ANA at 3 4 5 9 10 11 15	56.6 a.u.
2'F-ANA at 2 3 4 5 6 7 10 11 12 13 14	61.8 a.u.
2'F-ANA at 6 8 9 10 14 15	101 a.u.
2'F-ANA at 2 3 6 12 15	1010 a.u.
2'F-ANA at 1 2 5 6 9 10 13 15	47.4 a.u.
2'F-ANA at 1 3 4 5 6 7 8 9 10 11 12 14 15	48.3 a.u.
